Measured values of several laboratories.
Parts stem from different laboratories: compare values within a part only.

Block 1 — method: RNA Bind-n-Seq; molecule type: RNA; matrix: in vitro; concentration: not given; relative to: input RNA pool; direction: higher = stronger binding
Target: RING finger protein unkempt homolog, zinc fingers 1-6, GST-SBP tag (UNK, Homo sapiens, UniProt Q9C0B0, residues 30-357)
Sequence of UniProt Q9C0B0 (30-357, looked up): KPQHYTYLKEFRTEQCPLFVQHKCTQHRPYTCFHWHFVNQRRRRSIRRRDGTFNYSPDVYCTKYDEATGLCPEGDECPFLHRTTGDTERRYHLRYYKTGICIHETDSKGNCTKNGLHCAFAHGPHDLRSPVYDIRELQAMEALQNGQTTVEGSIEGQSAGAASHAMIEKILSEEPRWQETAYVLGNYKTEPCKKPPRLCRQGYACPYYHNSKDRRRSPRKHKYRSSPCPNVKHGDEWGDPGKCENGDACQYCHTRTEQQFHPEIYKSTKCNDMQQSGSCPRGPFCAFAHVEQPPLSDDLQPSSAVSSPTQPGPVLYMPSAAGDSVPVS
Setting: RNA with constant flanks, human and mouse sites, ends assumed
Strand | bound/input enrichment
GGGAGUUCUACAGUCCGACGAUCAUUGAGAAGGCUGGAAAUUCCAGCAACGCAACACAAGUAGUCACGGACAUUGGAAUUACUGACGCUACAGUCACUGAAUUAAUACCUGGCUCAUCAUACACAGUGGAGAUCUUUGCACAACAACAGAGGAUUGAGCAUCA | 0.138 ratio
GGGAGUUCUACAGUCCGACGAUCUUACCGGCUGAAGAAGGAAAAACCUUGCUGGAACUUGUGAUUGAGCAGUUUGAAGACUUGCUAGUUAGGAUUUUAUUACUGGCAGCAUGUAUAUCUUUUGUUUUGGCUUGGUUUGAAGAACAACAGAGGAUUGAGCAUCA | 0.845 ratio
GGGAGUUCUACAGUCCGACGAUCUUCAGAGUCACAGUUCCCUUUAUUUCACAUAAGCCCAAACUGAUAGACAGUAACGGUGUUUAGUUUUAUACUAUAUUUGUGCUAUUUAAUUCUUUCUAUUUUCACAAUUAUUAAAUUGUGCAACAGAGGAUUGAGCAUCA | 4.12 ratio
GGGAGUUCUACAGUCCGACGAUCAUUUUUUUUUUAAAUGGGCUGUUUUUAAUGCAGGGGCUUUUCUUCCCUAGAAACCCAAUUCUAAGCAGAAAAAGAAAAAAAACACAAAAAAUAAAAAACCCCUACAAAAAAACUUUAAAACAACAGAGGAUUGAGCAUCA | 0.408 ratio
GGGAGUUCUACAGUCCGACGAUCGUCCCGGACCGCAGUGUUAAAAAGACCUGAACACAUUUGCUGAAACCUCUUGCUGUGAGAUAGCAGAACUUUUGAGCAGGUUUCUCUACACAUAAAAAUCUUUUCAAAAAUACGGAGAAGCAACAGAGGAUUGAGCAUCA | 0.343 ratio
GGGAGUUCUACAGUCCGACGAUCUUACAUUAAAAAUCAUUGUACUUGCACAACUUAAUUUAGAAAAAGAAUGUGUAUUUCUUCAAUAGCCGAGCAUAAGGAUUGCACCCUGUAUCUGAAUGUGGCUCUUUGGAUGGAAGUGCACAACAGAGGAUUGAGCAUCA | 0.902 ratio
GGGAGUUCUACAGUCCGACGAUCCCUGUUUGUGAAGGGGUGUCGAAGCUAGAAGAAUCCUCUAAAGCAACUCCUGCAGAGAUGGAUUUGGCCCACAACAGCCAAAGCAUGCACGCCUCUUCAGCUUCCAAAUCUGUGCUGGAGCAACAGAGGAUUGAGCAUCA | 0.132 ratio
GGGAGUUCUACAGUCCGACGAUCUGGACAGAAAAAAUAAUGAAACAAACUGAAGUGUUAUUGCAGCCAAAUCCAAAUGCCAGGAUAGAAGAAUUUGUUUAUGAGAAACUGGAUAGAAAAGCUCCAAGUCGUAUAAACAACCCACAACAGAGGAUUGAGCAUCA | 0.455 ratio

Block 2 — method: protein binding microarray; molecule type: double-stranded DNA, one strand shown; matrix: in vitro; concentration: not given; relative to: not given; direction: higher = stronger binding
Target: Histone acetyltransferase KAT6A, winged helix 2, GST fusion (KAT6A, Homo sapiens, UniProt Q92794, residues 85-181)
Setting: 8-mer, flanks averaged, mean of 2 arrays, mostly near background
Construct (chain): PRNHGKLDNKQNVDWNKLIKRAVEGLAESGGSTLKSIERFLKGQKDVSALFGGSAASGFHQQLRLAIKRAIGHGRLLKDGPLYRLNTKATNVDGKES
Strand | E-score
ACCGCGTG | 0.174
GCCTTTAA | 0.0452
AGGCTTTG | -0.0215
ATCTAAAA | -0.0289
TAAACTCA | -0.00822
CAGGTGAG | 0.0748
AGTATATC | -0.0428
AATAGAAT | -0.0162
GAGCTACA | -0.0502
ATGTTCCA | 0.0658
CCATCGGA | 0.0151
AAATTCCG | -0.00387
CCTGTAGC | -0.206
ACGACTAT | -0.104
AAACATCA | -0.0783
AGTGTTGA | -0.0192
CTCAATCC | 0.0634
GTCCGAAC | -0.0259
CCTTTCCA | -0.0159

Block 3 — method: EMSA with sequencing; molecule type: double-stranded DNA, one strand shown; matrix: in vitro; concentration: 10 and 20 nM; relative to: negative control set to 0; direction: higher = stronger binding
Target: Hepatocyte nuclear factor 3-alpha (Foxa1, Mus musculus, UniProt P35582, residues 1-468, full length assumed)
Sequence of UniProt P35582 (whole entry, looked up): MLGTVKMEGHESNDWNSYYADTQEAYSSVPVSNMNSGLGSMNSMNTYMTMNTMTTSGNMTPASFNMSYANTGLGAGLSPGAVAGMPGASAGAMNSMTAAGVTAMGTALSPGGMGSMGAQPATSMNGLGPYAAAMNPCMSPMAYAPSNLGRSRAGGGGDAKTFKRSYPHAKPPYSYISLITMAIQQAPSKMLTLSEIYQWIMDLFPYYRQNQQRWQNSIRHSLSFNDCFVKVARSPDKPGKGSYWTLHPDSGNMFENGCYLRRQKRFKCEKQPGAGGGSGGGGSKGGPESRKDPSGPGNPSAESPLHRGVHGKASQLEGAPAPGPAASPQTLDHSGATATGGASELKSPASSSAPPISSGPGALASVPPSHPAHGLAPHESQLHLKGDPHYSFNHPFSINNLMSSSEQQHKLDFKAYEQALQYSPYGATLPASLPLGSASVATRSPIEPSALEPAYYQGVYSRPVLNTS
Setting: whole designed probe, mean of two concentrations, ends assumed
Strand | normalised bound fraction [ratio]
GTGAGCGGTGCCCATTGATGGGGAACGCCAGGATTGGGGTGGGTGGGTGAGGAGGAGAGAGCCACAAAATGATAAGAGTGGAGAGCAGTGTGGGGCCCTCCCTTTGAGGGAAAGCCGTTGTTTACATAGGGTAGTAGGCCTTGTTGGCCTGATCAAGAGATGAAGCCATAACTCTTAAAAACCTTCAGAACCAAACGCTGTGTCTGCATCCATCTGTTCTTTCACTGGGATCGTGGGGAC | 0.462
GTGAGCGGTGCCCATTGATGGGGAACATCTTCCCCCTCTTCCTTGCCCCACCAGCTCACCTTCCCGGGTTATTTGCAGATAGGAAAATAAATAAAGCCGGCATTCGTTAACCCTCTTCTGGCGCAAACTGCTGTTTGCTCTGGATGAATCATGGTCCTTTGGCGACGCCAGGCTCCGGGAGAGCAAAGCACCGTGTCAGGACTGCCAGCTGGGGTGGCCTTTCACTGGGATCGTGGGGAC | 0.346
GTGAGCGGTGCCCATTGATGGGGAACATCTTCCCCCTCTTCCTTGCCGCTCCCCAACACCTTCCCGGGTTATTTGCAGATAGGAAAATAAATAAAGCCGGCATTCGTTAACCCTCTTCTGGCGCAAACTGCTGTTTGCTCTGGATGAATCATGGTCCTTTGGCGACGCCAGGCTCCGGGAGAGCAAAGCACCGTGTCAGGGCCATGATCCGGGGTGGCCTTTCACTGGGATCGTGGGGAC | 0.314
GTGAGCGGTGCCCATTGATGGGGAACTAAATGCTAAAGCTGAAATGAACAGGGATGGCAGCTGCTCAGGGAACAATGAAGTGAAGTCAATCCTGAATTCCAACTTGAAAATGTTTAAAGTAAACAAGCAGGATCTAGGAGGTCATCTAGGAGGTCATTTTAAGGAAATGATAAGGAAAGACAAAAGGAAAGAAGAGCAAAACAGCTTTAGAAGTTAGTTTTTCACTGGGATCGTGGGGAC | 0.399
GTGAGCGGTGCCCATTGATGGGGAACATTGTACCTAGCTTCAATACAGTTATCTAAACCAGGAAAATGGTTTTCTGACTGTATTAGTCGCCTAGGGCTGCTTTAATAGGTCTTGCAAAAGTACACATATACTTGTCTTATGACTCAGCAATTCCACCGTTAGTATTTACCCCAAAATGATAAGCAATTCTGCAAATATGCTTCAGTTTACATATTTAGATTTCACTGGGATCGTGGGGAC | 0.143

Block 4 — method: RNA Bind-n-Seq; molecule type: RNA; matrix: in vitro; concentration: 365 nM; relative to: no-protein control; direction: higher = stronger binding
Target: RNA binding protein fox-1 homolog 2, RRM domain, GST-SBP tag (RBFOX2, Homo sapiens, UniProt O43251-10, residues 100-194)
Setting: natural RNA segment, single round, ends assumed
Residues (chain): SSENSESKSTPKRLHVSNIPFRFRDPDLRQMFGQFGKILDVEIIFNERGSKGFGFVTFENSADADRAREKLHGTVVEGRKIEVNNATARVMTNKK
Strand | RBNS enrichment (R)
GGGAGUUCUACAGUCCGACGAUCAUUUUAUCCAAUACAUGUAAAUGAAUAAAAGCAUAAUCAAAAGGGCUUCAAUGUGCAAUUCCUUUCUGCUUCCAAAGGUAUGCCUGCUUUGCUUUUGACUCUAAGCAUAAUGGAAUUCUCGGGUGCCAA | 15.9
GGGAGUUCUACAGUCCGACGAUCAAAUGUGAGUGCCCUUGAUCUUGUAUUGAUCAGUGCCAAUGUACUGGGAAAGCAGGUACCCCAGUGAAACUGGUCUGUGCUUGGUUUAACAGCUCCAACAAUUUCAGAUCUGGAAUUCUCGGGUGCCAA | 0.594
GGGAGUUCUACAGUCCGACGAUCACAAGUACAUUGAACAGUAAAAAGUGUAACAGCAAAGUAUAUAUUUGAUGCCUUCUGUCUUUUCAUGAUAAUGUGCUAACAAGUUGUGUUAAUAUUUUACUCAGCCAGAGUGGAAUUCUCGGGUGCCAA | 0.329
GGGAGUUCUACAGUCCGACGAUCAGUCUCACUUUUAAUUAUAAAACCAGAAAGCUGCAAUUUCUUUUCCCUCUACCCCUUAUUUGUUGGCUUCUUUGUUUUUUUAAUGUCAAAUCUGUUUGUUUUUACCAAGAUGGAAUUCUCGGGUGCCAA | 0.728
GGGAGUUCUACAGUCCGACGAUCACUCAGCAGUGACCCUGUGUGCCAGGCCAGAUCCAAACUGAGAGGGAAGGUGUCGUUUUUACACUGCUAAUGACGAGAGUGGCUCUUUUUAGCUAGGCGAGUACAGACGGUGGAAUUCUCGGGUGCCAA | 0.369
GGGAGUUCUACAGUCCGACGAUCUUCCAUUAUAAUGUUUUCGCAUGUCUGCCUCUAAAACUGUGAUUUUCAAGCUUUAGCGUGCAUCAGAAUCACCUGUAGGGCUUGUUAAAACACUAAUUGCUGGGCCUCAAUGGAAUUCUCGGGUGCCAA | 2.39
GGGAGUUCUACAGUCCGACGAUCGUGCCUCACAGGGCCCACUCCCUGCCUAUGCCUCCCUCUUGGGGGGCCGAGGAGGGCGGCUGCUCUGUCAUGAGAAUGUACGGCCCGUGGAUGAUUAACGGGCCUUUUUCUGGAAUUCUCGGGUGCCAA | 0.514
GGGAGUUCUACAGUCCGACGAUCCUGCAAUGCCUUUGGGAAGCUCAGGGGAAUGCUCCCCAAGCUUGUUUCUGACACUAGAAUGCAACAGAUUGGAAACUUUUUGUGUAAAAUGAAAAAAACAAAGUGCUGGUUGGAAUUCUCGGGUGCCAA | 1.04

Excerpt of the above (block 2):
Strand | E-score
ACCGCGTG | 0.174
GCCTTTAA | 0.0452
AGGCTTTG | -0.0215
ATCTAAAA | -0.0289
TAAACTCA | -0.00822
CAGGTGAG | 0.0748
AGTATATC | -0.0428
